Assay results from different studies.
Numbers after ± are the reported error.
Sequence of UniProt Q12809 (whole entry, looked up): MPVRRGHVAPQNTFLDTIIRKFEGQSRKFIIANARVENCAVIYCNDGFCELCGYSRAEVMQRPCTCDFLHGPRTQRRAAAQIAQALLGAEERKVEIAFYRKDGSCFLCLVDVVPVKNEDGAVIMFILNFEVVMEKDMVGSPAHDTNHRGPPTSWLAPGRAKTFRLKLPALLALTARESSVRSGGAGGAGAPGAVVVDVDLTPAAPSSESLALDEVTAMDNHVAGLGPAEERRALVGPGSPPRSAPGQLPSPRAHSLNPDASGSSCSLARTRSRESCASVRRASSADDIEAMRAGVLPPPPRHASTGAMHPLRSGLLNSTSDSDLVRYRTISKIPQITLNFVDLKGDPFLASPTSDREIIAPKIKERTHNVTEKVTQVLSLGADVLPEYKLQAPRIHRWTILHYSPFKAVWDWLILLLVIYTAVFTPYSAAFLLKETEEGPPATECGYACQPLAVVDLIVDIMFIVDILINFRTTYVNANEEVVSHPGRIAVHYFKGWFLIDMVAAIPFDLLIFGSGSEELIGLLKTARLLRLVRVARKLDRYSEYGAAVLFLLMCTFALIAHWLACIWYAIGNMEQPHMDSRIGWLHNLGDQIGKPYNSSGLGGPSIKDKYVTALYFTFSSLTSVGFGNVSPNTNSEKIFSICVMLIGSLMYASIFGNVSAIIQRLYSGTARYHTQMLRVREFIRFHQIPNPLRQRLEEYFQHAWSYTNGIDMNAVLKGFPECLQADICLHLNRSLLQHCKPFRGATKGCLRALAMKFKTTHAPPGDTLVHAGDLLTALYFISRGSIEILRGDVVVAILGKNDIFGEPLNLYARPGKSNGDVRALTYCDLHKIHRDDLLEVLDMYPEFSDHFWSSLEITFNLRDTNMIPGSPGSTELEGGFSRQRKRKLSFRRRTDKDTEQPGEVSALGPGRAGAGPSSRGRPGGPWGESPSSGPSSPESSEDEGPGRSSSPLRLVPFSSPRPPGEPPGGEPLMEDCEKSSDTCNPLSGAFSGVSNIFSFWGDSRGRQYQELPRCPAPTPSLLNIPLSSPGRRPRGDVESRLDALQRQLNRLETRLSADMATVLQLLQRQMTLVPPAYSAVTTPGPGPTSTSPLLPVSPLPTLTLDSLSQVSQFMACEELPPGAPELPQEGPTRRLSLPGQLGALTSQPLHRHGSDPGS

CCc1c(C(=O)C(N)=O)c2c(OCC(=O)O)cccc2n1Cc1ccccc1 — viability difference (Daboia russelii; C2C12; 100 µM, with: Daboia russelii venom GA; relative to: venom alone): -36%
CCCCN(C)CCNC(=O)c1cc(-c2ccc(Cl)s2)nc2ccccc12 — maximum response (SARS-CoV-2; cytopathic effect; USA_WA1/2020; retest, 8-point, duplicates): 41%
CSc1ccc(C2c3[nH]c4ccccc4c3CCN2C(=O)CCc2cccs2)cc1 (stereo not drawn) — remaining activity (Lassa mammarenavirus; viral replication; Huh-7; 10 µM, 72 h): 41%
CC[C@H](C)[C@H](NC(=O)[C@H](CC(C)C)NC(=O)[C@H](Cc1c[nH]c2ccccc12)NC(=O)[C@H](CCC(N)=O)NC(=O)[C@@H](NC(=O)[C@H](Cc1ccccc1)NC(=O)[C@H](C)NC(=O)[C@H](CCCCNC(=O)COCCOCCNC(=O)COCCOCCNC(=O)CC[C@H](NC(=O)CCCCCCCCCCCCCCCCCCC(=O)O)C(=O)O)NC(=O)[C@H](CCC(N)=O)NC(=O)[C@H](C)NC(=O)[C@@H](NC(=O)[C@H](CCCCN)NC(=O)[C@H](CC(=O)O)NC(=O)[C@H](CC(C)C)NC(=O)C(C)(C)NC(=O)[C@@H](NC(=O)[C@H](CO)NC(=O)[C@H](Cc1ccc(O)cc1)NC(=O)[C@H](CC(=O)O)NC(=O)[C@H](CO)NC(=O)[C@@H](NC(=O)[C@H](Cc1ccccc1)NC(=O)[C@@H](NC(=O)CNC(=O)[C@H](CCC(=O)O)NC(=O)C(C)(C)NC(=O)[C@@H](N)Cc1ccc(O)cc1)[C@@H](C)O)[C@@H](C)O)[C@@H](C)CC)[C@@H](C)CC)C(C)C)C(=O)N[C@@H](C)C(=O)NCC(=O)NCC(=O)N1CCC[C@H]1C(=O)N[C@@H](CO)C(=O)N[C@@H](CO)C(=O)NCC(=O)N[C@@H](C)C(=O)N1CCC[C@H]1C(=O)N1CCC[C@H]1C(=O)N1CCC[C@H]1C(=O)N[C@@H](CO)C(N)=O — Cmax (human, plasma; subcutaneous, 15.0 mg once weekly, week 23, multiple doses): 2930 ng/mL
CNC(=O)[C@@H](NC(=O)[C@H](CC(C)C)[C@H](O)C(=O)NO)C(C)(C)C — time of death (Daboia russelii; mouse; 120 µg, up to 24 h, with: southern venom preincubated): > 24 h
CC1=C(/C=C/C(C)=C/C=C/C(C)=C/C(=O)Nc2ccc(O)cc2)C(C)(C)CCC1 — EC50 (SARS-CoV-2; viral replication, high-content imaging screen; cell-based): 2.95 µM
Nc1ncnc2c([C@@H]3N[C@H](CO)[C@@H](O)[C@H]3O)c[nH]c12 — inhibition (Marburg marburgvirus; viral RNA in cell lysate; HeLa, Musoke; 25 µM): 97.3%
Cc1nc2n(n1)CC(=O)N[C@@H](C(C)C)CN(CC(C)C)CC(=O)N[C@@H](CC(C)C)c1nc(cs1)C(=O)N[C@H]2Cc1ccccc1 — remaining activity (Lassa mammarenavirus; viral replication; Huh-7; 10 µM, 72 h): 84%
Cn1cnc(Cn2c(=O)[nH]/c(=N\c3cc4cn(C)nc4cc3Cl)n(Cc3cc(F)c(F)cc3F)c2=O)n1 — terminal half-life (human, severe renal impairment, plasma; oral, 375 mg single dose): 70.7 h
CNCCN(C)c1nc(NC(C)c2ccccc2)c2ccccc2n1 (stereo not drawn) — maximal response (SARS-CoV-2; cytopathic effect, cell-based CPE; USA_WA1/2020; round 2, 5-point dilution): 102%
O=C1NCCCOc2cccc(c2)C2c3ccc(cc3CCN2C(=O)c2ccc(C(=O)N3CCOCC3)cc2)Oc2ccc(O)c1c2 (stereo not drawn) — remaining activity (Lassa mammarenavirus; viral replication; Huh-7; 10 µM, 72 h): 39%
CC(=O)c1c(O)c(C)c(O)c(Cc2c(O)c3c(c(C(=O)/C=C/c4ccccc4)c2O)OC(C)(C)C=C3)c1O — fast deactivation time constant (KCNH2 (Homo sapiens, UniProt Q12809); ion current, whole-cell patch clamp; HEK293 expressing hERG1; 4 µM, at -120 mV): 30 ± 2 ms
CCCN(CCC)CCCNC(=O)C1CCCN(Cc2nc(-c3ccc(Cl)cc3)oc2C)C1 (stereo not drawn) — maximum response (SARS-CoV-2; cytopathic effect; USA_WA1/2020; retest 8-point): 78.7%
Cc1nc[nH]c1CN1CCc2cc3ccc2C1c1cccc(c1)OCCCNC(=O)c1cc(ccc1O)O3 (stereo not drawn) — remaining activity (Lassa mammarenavirus; viral replication; Huh-7; 10 µM, 72 h): 51%
COP(=O)(OC)OC=C(Cl)Cl — Ki (rat CYP3A; midazolam 4-hydroxylation, non-competitive inhibitor; rat Sprague-Dawley, liver microsomes; 10 min, pH 7.4, with: midazolam 15 to 214 µM): > 5000 µM
CC(C)(C)[C@H](NC(=O)C(F)(F)F)C(=O)N1C[C@H]2[C@@H]([C@H]1C(=O)N[C@H](C#N)C[C@@H]1CCNC1=O)C2(C)C — Vz/F (human; 500 mg single dose): 2440 L
CN1CCCC2(C1)CN(Cc1cccnc1)c1ccc(C(=O)NCC3CCCCC3)cc12 (stereo not drawn) — efficacy (SARS-CoV-2; cytopathic effect; USA_WA1/2020; round 2, 5-point): 89%
CC[C@H](C)[C@H](NC(=O)[C@H](CC(C)C)NC(=O)[C@H](Cc1c[nH]c2ccccc12)NC(=O)[C@H](CCC(N)=O)NC(=O)[C@@H](NC(=O)[C@H](Cc1ccccc1)NC(=O)[C@H](C)NC(=O)[C@H](CCCCNC(=O)COCCOCCNC(=O)COCCOCCNC(=O)CC[C@H](NC(=O)CCCCCCCCCCCCCCCCCCC(=O)O)C(=O)O)NC(=O)[C@H](CCC(N)=O)NC(=O)[C@H](C)NC(=O)[C@@H](NC(=O)[C@H](CCCCN)NC(=O)[C@H](CC(=O)O)NC(=O)[C@H](CC(C)C)NC(=O)C(C)(C)NC(=O)[C@@H](NC(=O)[C@H](CO)NC(=O)[C@H](Cc1ccc(O)cc1)NC(=O)[C@H](CC(=O)O)NC(=O)[C@H](CO)NC(=O)[C@@H](NC(=O)[C@H](Cc1ccccc1)NC(=O)[C@@H](NC(=O)CNC(=O)[C@H](CCC(=O)O)NC(=O)C(C)(C)NC(=O)[C@@H](N)Cc1ccc(O)cc1)[C@@H](C)O)[C@@H](C)O)[C@@H](C)CC)[C@@H](C)CC)C(C)C)C(=O)N[C@@H](C)C(=O)NCC(=O)NCC(=O)N1CCC[C@H]1C(=O)N[C@@H](CO)C(=O)N[C@@H](CO)C(=O)NCC(=O)N[C@@H](C)C(=O)N1CCC[C@H]1C(=O)N1CCC[C@H]1C(=O)N1CCC[C@H]1C(=O)N[C@@H](CO)C(N)=O — total ALT (healthy human subjects, serum; 5/5/8/10 mg escalating, baseline): 32 ± 13.6 U/L

Repeated from above:
Cc1nc[nH]c1CN1CCc2cc3ccc2C1c1cccc(c1)OCCCNC(=O)c1cc(ccc1O)O3 (stereo not drawn) — remaining activity (Lassa mammarenavirus; viral replication; Huh-7; 10 µM, 72 h): 51%
COP(=O)(OC)OC=C(Cl)Cl — Ki (rat CYP3A; midazolam 4-hydroxylation, non-competitive inhibitor; rat Sprague-Dawley, liver microsomes; 10 min, pH 7.4, with: midazolam 15 to 214 µM): > 5000 µM
